Measured values of several laboratories.
Lines come from different studies, so protocols differ. ± marks the error that the study gave.

C[C@H](CCCC(N)=O)C[C@@H](OC(=O)[C@H](C)CC/C=C/I)C(C)(C)C
IC50 (voltage-gated sodium channels; veratridine-stimulated Na+ influx, antagonist, SBFI fluorescence; primary mouse cerebrocortical neurons): > 10 µM

COc1cccc(CCc2ccc(O)cc2)c1
IC50 (Sp1 (human); reporter gene, inhibitor; SW1353; control transcription factor): > 25 µg/mL

COc1cc([C@@H]2c3cc4c(cc3[C@H](O)[C@H]3COC(=O)[C@H]23)OCO4)cc(OC)c1OC
IC50 (tubulin, bovine brain; tubulin assembly, inhibitor; 37 °C, tubulin 5 µM, 2% DMSO, together with: paclitaxel 5 µM): 1.6 ± 0.02 µM

CNC(=O)CCC[C@@H](C)C[C@@H](OC(=O)[C@@H](C)CCCCO)C(C)(C)C
IC50 (voltage-gated sodium channels; veratridine-stimulated Na+ influx, antagonist, SBFI fluorescence; primary mouse cerebrocortical neurons): > 10 µM

COc1ccccc1SC[C@H]1O[C@H](O[C@@H]2[C@@H](O)[C@H](O[C@H]3O[C@H](CN)[C@@H](O)C[C@H]3N)[C@@H](N)C[C@H]2N)[C@H](O)[C@@H](N)[C@@H]1O
IC50 (Escherichia coli ribosome wild type; EF-G-dependent translocation, inhibitor, toeprinting): 100 µM

NC[C@@H]1O[C@H](O[C@H]2[C@@H](O)[C@H](O[C@@H]3[C@@H](O)[C@H](N)C[C@H](N)[C@H]3O[C@H]3O[C@H](CO)[C@@H](O)[C@H](O)[C@H]3N)O[C@@H]2CO)[C@H](N)[C@@H](O)[C@@H]1O
IC50 (Mycobacterium smegmatis ribosome G1491A; translation, cell-free luciferase synthesis): 0.57 ± 0.09 µg/mL

COC(=O)c1ccc2c(c1)[C@@H](NC(C)=O)CCc1cc(OC)c(OC)c(OC)c1-2
IC50 (tubulin, bovine brain; tubulin assembly, inhibitor; 37 °C, tubulin 5 µM, 2% DMSO, together with: paclitaxel 5 µM): 2.2 ± 0.09 µM

NC[C@H]1O[C@H](O[C@H]2[C@H](O)[C@@H](O[C@H]3O[C@H](CSc4ccccc4F)[C@@H](O)[C@H](N)[C@H]3O)[C@H](N)C[C@@H]2N)[C@H](N)C[C@@H]1O
IC50 (Escherichia coli ribosome, wild type; EF-G-dependent translocation, inhibitor, toeprinting; second inflection, biphasic fit): 210 µM

NCC1OC(OC2C(CO)OC(OC3C(O)C(N)CC(N)C3OC3OC(CO)C(OCCCc4ccccc4)C(O)C3N)C2O)C(N)C(O)C1O (stereo not shown)
IC50 (Mycobacterium smegmatis ribosome G1491A; translation, cell-free luciferase synthesis): 51.3 ± 15.7 µg/mL

CC(C)/C=C/c1c(O)cc(/C=C/c2ccccc2)cc1O
IC50 (Sp1 (human); reporter gene, inhibitor; SW1353; control transcription factor): > 25 µg/mL

C=CC(=O)OCCO
IC50 (lysine-containing peptide; peptide depletion, mass spectrometry; 24 h, pH 10.2, room temperature, together with: lysine peptide 0.5 mM): 9510 µM

CC(C)=CCc1c(O)cc(/C=C/c2ccc(O)cc2)cc1O
IC50 (Sp1 (human); reporter gene, inhibitor; SW1353; control transcription factor): < 0.025 µg/mL

C[C@H]1CCCC(=O)N(C)/C=C/CC[C@@H](C)C(=O)O[C@H](C(C)(C)C)C1
IC50 (voltage-gated sodium channels; veratridine-stimulated Na+ influx, antagonist, SBFI fluorescence; primary mouse cerebrocortical neurons): > 10 µM

NC[C@@H]1O[C@H](O[C@H]2[C@@H](O)[C@H](O[C@@H]3[C@@H](O)[C@H](N)C[C@H](N)[C@H]3O[C@H]3O[C@@H]4CO[C@@H](CCc5ccccc5)O[C@H]4[C@H](O)[C@H]3N)O[C@@H]2CO)[C@H](N)[C@@H](O)[C@@H]1O
IC50 (Mycobacterium smegmatis ribosome G1491A; translation, cell-free luciferase synthesis): 43 ± 11.3 µg/mL

CC(C)/C=C/c1c(O)cc(/C=C/C2=CC(=O)OC2CC(=O)O)cc1O (stereo not shown)
IC50 (Sp1 (human); reporter gene, inhibitor; SW1353; control transcription factor): > 25 µg/mL

cadmium acetate
IC50 (androgen receptor (human); PSA promoter-luciferase transcription, inhibitor; LAPC4): 1.1 µM

CCCCCCCCCCSC[C@H]1O[C@H](O[C@@H]2[C@@H](O)[C@H](O[C@H]3O[C@H](CN)[C@@H](O)C[C@H]3N)[C@@H](N)C[C@H]2N)[C@H](O)[C@@H](N)[C@@H]1O
IC50 (Escherichia coli ribosome wild type; EF-G-dependent translocation, inhibitor, toeprinting): > 1000 µM

C1CCN(C23CC4CC(CC2C4)C3)CC1
IC50 (NMDA receptor; intracellular calcium, antagonist, Fura-2; cerebellar granule neurons; together with: glutamate 100 µM, glycine 10 µM): > 500 µM

NCC1OC(OC2C(N)CC(N)C(OC3OC(CSc4cccc(F)c4)C(O)C(N)C3O)C2O)C(N)CC1O (stereo not shown)
IC50 (Escherichia coli ribosome wild type; EF-G-dependent translocation, inhibitor, toeprinting): 72 µM

NC[C@@H]1O[C@H](O[C@H]2[C@@H](O)[C@H](O[C@@H]3[C@@H](O)[C@H](N)C[C@H](N)[C@H]3O[C@H]3O[C@H](CO)C[C@H](O)[C@H]3N)O[C@@H]2CO)[C@H](N)[C@@H](O)[C@@H]1O
IC50 (Mycobacterium smegmatis ribosome G1491A; translation, cell-free luciferase synthesis): 2.4 ± 0.1 µg/mL

Oc1ccc(/C=C/c2cccc(O)c2)cc1
IC50 (Sp1 (human); reporter gene, inhibitor; SW1353; control transcription factor): > 25 µg/mL

O=C(Nc1cccnn1)N1CCN([C@@H]2CCOc3cc(C(F)(F)F)ccc32)CC1
IC50 (Na+ channel site 2; binding): 11 µM

COc1cccc(/C=C/c2ccc(O)cc2)c1
IC50 (Sp1 (human); reporter gene, inhibitor; SW1353; control transcription factor): 25 µg/mL

myricitrin
IC50 (class IIa HDAC (bovine); enzyme activity, inhibitor; bovine heart tissue lysate): 14 µM

COc1cc(/C=C/c2ccccc2)cc(OC)c1
IC50 (Sp1 (human); reporter gene, inhibitor; SW1353; control transcription factor): > 25 µg/mL

Cc1cc2c(C(C)C)c(O)c(O)c(C=O)c2c(O)c1-c1c(C)cc2c(C(C)C)c(O)c(O)c(C=O)c2c1O
IC50 (class I HDAC; enzyme activity; bovine heart lysate): 11 µM

CC(C)(O)C(O)Cc1c(O)cc(/C=C/c2ccc(O)cc2)cc1O (stereo not shown)
IC50 (Sp1 (human); reporter gene, inhibitor; SW1353; control transcription factor): > 25 µg/mL

CO[C@@H]1[C@@H](O)[C@H](O[C@H]2CC[C@@]3(C)C(=CC[C@]4(O)[C@@H]3CC[C@]3(C)[C@@H]([C@H](C)O[C@@H]5O[C@H](CO)[C@@H](O)[C@H](OC(=O)CC(C)C)[C@H]5O)CC[C@@]34O)C2)O[C@H](C)[C@@H]1O[C@@H]1O[C@H](CO)[C@@H](O)[C@H](O)[C@H]1O
IC50 (arginine-methylglyoxal glycation; AGE formation, inhibitor): > 1300 µM
